Experimental data pooled from the literature.
A part holds a random share of what one study measured.
Sequence of UniProt O60285 (whole entry, looked up): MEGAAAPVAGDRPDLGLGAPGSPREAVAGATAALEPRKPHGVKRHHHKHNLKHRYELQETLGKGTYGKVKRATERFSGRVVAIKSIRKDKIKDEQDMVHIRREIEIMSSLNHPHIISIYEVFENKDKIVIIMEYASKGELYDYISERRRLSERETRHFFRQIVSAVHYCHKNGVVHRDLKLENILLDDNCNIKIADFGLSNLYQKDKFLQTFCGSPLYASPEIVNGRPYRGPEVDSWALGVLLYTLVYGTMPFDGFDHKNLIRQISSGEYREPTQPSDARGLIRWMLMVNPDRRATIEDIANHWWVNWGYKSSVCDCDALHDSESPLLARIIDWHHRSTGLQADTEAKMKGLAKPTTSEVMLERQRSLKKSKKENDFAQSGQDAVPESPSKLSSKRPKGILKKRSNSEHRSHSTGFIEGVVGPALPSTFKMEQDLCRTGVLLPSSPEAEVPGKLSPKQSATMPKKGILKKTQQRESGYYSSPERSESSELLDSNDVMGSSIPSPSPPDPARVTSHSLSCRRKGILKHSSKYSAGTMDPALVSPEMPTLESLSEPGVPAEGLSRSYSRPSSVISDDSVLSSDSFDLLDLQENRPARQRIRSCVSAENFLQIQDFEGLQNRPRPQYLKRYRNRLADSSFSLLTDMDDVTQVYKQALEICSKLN
Sequence of UniProt P22455 (whole entry, looked up): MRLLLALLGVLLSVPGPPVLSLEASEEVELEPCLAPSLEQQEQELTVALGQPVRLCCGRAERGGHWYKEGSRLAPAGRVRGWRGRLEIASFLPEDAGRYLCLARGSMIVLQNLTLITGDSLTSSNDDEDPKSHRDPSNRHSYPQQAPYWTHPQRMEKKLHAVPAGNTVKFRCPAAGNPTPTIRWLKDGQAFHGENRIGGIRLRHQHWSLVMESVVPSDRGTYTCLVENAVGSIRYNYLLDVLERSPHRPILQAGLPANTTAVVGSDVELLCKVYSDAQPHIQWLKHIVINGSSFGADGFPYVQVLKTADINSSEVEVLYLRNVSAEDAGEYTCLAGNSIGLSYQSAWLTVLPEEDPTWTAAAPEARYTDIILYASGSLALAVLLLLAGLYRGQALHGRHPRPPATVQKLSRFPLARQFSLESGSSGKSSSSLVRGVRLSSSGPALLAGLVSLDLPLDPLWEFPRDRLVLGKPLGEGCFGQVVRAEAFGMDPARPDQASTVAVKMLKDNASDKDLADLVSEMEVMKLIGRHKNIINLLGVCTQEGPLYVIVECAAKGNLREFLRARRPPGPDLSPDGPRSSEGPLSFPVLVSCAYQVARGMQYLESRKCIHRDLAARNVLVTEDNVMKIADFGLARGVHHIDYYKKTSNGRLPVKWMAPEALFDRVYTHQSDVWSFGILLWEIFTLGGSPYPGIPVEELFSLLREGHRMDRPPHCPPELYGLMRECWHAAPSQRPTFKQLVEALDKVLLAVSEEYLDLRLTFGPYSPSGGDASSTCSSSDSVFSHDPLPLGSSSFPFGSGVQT
Sequence of UniProt P10721 (whole entry, unmodified, looked up): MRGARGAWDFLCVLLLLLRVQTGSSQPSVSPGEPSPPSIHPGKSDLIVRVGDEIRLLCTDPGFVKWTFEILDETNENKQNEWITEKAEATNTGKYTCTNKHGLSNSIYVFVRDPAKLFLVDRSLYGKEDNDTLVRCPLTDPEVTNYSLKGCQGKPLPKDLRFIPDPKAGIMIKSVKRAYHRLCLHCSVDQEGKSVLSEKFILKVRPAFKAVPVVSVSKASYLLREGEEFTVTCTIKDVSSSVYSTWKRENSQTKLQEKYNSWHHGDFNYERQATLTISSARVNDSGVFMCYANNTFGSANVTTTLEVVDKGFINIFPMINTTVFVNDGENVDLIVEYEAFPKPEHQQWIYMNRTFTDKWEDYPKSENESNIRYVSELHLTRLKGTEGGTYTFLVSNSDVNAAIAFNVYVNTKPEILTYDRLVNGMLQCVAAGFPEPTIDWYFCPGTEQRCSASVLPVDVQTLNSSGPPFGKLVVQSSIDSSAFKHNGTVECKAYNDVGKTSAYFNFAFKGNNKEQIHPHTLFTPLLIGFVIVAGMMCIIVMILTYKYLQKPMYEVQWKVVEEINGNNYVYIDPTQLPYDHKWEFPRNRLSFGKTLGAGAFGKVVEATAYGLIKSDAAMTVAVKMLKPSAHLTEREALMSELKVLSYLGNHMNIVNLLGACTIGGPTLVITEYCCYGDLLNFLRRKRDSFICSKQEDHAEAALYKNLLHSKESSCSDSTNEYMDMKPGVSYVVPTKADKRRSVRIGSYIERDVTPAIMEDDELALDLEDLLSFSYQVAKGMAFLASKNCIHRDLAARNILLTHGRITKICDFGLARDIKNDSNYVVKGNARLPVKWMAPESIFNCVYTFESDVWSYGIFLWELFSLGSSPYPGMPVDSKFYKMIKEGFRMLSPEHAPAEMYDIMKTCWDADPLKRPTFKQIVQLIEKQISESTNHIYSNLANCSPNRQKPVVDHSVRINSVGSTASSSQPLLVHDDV
Sequence of UniProt Q15835 (whole entry, looked up): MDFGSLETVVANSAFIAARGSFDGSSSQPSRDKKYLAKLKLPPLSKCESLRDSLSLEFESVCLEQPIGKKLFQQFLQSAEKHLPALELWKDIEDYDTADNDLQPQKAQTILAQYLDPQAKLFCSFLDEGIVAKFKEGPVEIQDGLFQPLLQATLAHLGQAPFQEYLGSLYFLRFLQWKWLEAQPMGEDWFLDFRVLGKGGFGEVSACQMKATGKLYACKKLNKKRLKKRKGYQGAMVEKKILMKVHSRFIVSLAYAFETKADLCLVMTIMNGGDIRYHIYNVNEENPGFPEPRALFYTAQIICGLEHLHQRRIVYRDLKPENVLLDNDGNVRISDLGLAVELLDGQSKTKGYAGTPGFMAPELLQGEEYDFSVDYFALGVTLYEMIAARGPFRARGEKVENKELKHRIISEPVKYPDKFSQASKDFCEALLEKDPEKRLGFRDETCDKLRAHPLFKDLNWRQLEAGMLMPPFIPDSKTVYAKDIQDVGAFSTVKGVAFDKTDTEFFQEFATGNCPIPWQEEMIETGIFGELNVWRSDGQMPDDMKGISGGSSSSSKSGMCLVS
Sequence of UniProt Q8IU85 (whole entry, looked up): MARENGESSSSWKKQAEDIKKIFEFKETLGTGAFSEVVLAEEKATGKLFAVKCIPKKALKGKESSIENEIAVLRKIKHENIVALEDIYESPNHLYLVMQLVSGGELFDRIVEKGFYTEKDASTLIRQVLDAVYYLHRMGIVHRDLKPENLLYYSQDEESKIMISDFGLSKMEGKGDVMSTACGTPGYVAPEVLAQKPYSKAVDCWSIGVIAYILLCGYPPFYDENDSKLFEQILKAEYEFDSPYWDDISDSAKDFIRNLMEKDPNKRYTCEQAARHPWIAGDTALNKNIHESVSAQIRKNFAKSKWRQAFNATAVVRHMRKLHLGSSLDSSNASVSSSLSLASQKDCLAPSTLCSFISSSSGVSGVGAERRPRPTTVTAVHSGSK

Set 1 — host: human; sample: microsomes or S9; concentration: 2 µM; time: 0.5 h; measurement: remaining compound
CC1(C)CC(=O)c2c(O)cc(OCC(=O)N3CCN(C(=O)C4COc5ccccc5O4)CC3)cc2O1 (stereo not shown): 19.7%
Cc1ccc(-c2csc3ncn(-n4cccc4)c(=O)c23)o1: 28.2%
CC(C)Cn1c(=O)c(N2CCN(S(=O)(=O)Cc3ccccc3)CC2)nc2ccncc21: 12.5%
CCc1cnc(N2CCC(N(C)c3ncnc4c(-c5ccc6c(c5)CN(C)C6=O)csc34)CC2)nc1: 21.3%
Cc1cccc(OCCn2cnc3c(cnn3-c3cccc(C(F)(F)F)c3)c2=O)c1: > 99%
C[C@@H]1C[C@H]2[C@@H]3CCC4=CC(=O)C=C[C@]4(C)C3(F)[C@@H](O)C[C@]2(C)[C@@]1(O)C(=O)CO (stereo partly shown): 75.2%
Cc1cc(C)n(-c2ncnc3sc4c(c23)CC(C)CC4)n1 (stereo not shown): 3.36%
COc1c2c(cc3c1OCO3)CCN(C)C(C(C)=O)=C2: 17.1%
CCc1cc(-c2n[nH]c(C(=O)O)c2-c2nc(C)cs2)c(O)cc1O: 97.7%
Cc1nn(-c2nnn(CC(=O)O)n2)c(C)c1Br: 79.2%
OCCN1CCN(Cc2nc(O)c3ccccc3n2)CC1: > 100%
CN(Cc1cnn(-c2ccccc2)c1)c1ccc(C#N)cn1: 0.2%
O=C(Nc1ccc(/C=C/C(=O)N2CCC[C@H]2C(=O)O)cc1)Nc1ccccc1Br: > 99%
COC(=O)C1(C(=O)OC)C(CC(=O)c2ccc(Br)cc2)c2cc(N(C)C)ccc2C(c2ccccc2)N1S(=O)(=O)c1ccc(C)cc1 (stereo not shown): 42.2%
Cc1ccc(OC(C)C)c(CN(CCO)CCO)c1: 78.1%

Set 2 — read-out: enzyme activity; mode: inhibitor; concentration: 10 µM; measurement: inhibition
Target: Calcium/calmodulin-dependent protein kinase type II subunit alpha (CAMK2A, Homo sapiens, UniProt Q9UQM7)
Sequence of UniProt Q9UQM7 (whole entry, looked up): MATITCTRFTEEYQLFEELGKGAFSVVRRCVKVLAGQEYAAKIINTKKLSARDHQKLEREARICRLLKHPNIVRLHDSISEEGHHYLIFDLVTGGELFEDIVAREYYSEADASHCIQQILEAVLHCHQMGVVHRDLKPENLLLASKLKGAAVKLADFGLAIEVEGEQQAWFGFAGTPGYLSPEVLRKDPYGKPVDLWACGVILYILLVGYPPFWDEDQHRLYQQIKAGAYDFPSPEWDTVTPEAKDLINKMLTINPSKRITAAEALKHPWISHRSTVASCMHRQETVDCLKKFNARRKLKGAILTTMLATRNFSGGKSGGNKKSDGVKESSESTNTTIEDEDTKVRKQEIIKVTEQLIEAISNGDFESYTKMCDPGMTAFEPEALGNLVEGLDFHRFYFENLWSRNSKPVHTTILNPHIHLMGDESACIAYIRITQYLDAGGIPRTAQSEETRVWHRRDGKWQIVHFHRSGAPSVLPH
O=C(O)[C@@H]1C[C@H](O)CN1: -13%
CC(=O)NCC(=O)O: 8%
O=C(O)CSCC(=O)NC1CCSC1=O (stereo not shown): 0%
CO[C@@]1(NC(=O)CSCC#N)C(=O)N2C(C(=O)O)=C(CSc3nnnn3C)CS[C@@H]21: -10%
C[C@@]12C[C@@]3(O)O[C@@H](O1)[C@]1(COC(=O)c4ccccc4)[C@@H]3C[C@]12O[C@@H]1O[C@H](COC(=O)c2cc(O)c(O)c(O)c2)[C@@H](O)[C@H](O)[C@H]1O: -5%
c1ccc(Nc2ccccc2)cc1: 19%
CC(C)=CCc1c(O)cc(O)c2c(=O)cc(-c3ccc(O)cc3)oc12: 30%
CCC/C=C1/OC(=O)c2ccccc21: -13%
O=C(O[C@@H]1O[C@@H]2COC(=O)c3cc(O)c(O)c(O)c3-c3c(cc(O)c(O)c3O)C(=O)O[C@H]([C@H]1O)[C@@H]2O)c1cc(O)c(O)c(O)c1: -5%
O=C(O)[C@H]1CCCN1: -11%
CCOC(=O)c1cc(O)c(O)c(O)c1: -10%
Nc1nc(=O)c2[nH]c(=O)cnc2[nH]1: 19%
O=C(c1ccccc1)C(O)c1ccccc1 (stereo not shown): -1%
Cc1ncc([N+](=O)[O-])n1C: 1%
COc1cc(/C=C/C(=O)O[C@@H]2C[C@@](O)(C(=O)O)C[C@@H](O)[C@@H]2O)ccc1O: 39%
C[C@H]1C(=O)CC[C@@H]2[C@]1(C)CC[C@H]1[C@@]2(C)CC[C@@]2(C)[C@@H]3CC(C)(C)CC[C@]3(C)CC[C@]12C: -52%

Set 3 — Compound: CCCCc1c(-c2ccc(OC)cc2)[nH]c2nccnc12; read-out: enzyme activity; mode: inhibitor; concentration: 0.5 µM; baseline: control; measurement: remaining activity
CSK (Homo sapiens, UniProt P41240): 87%
GRK6 (Homo sapiens, UniProt P43250): 88.3%
SGK1 (Homo sapiens, UniProt O00141): 88.4%
MYLK (Homo sapiens, UniProt Q15746): 96.8%
EPHA7 (Homo sapiens, UniProt Q15375): 98%
RPS6KA1 (Homo sapiens, UniProt Q15418): 89.8%
PRKCE (Homo sapiens, UniProt Q02156): 102%
NUAK1 (Homo sapiens, UniProt O60285): 25%
EPHB2 (Homo sapiens, UniProt P29323): 88.8%
PRKCG (Homo sapiens, UniProt P05129): 94.4%
GRK2 (Homo sapiens, UniProt P25098): 78.5%
SRPK3 (Homo sapiens, UniProt Q9UPE1): 97.9%
PAK2 (Homo sapiens, UniProt Q13177): 97.5%
FLT3 (Homo sapiens, UniProt P36888): 47.8%
FGFR4 (Homo sapiens, UniProt P22455): 92.5%
RPS6KB1 (Homo sapiens, UniProt P23443): 108%
CSF1R (Homo sapiens, UniProt P07333): 37.7%
GSK3A (Homo sapiens, UniProt P49840): 55.8%
PIM2 (Homo sapiens, UniProt Q9P1W9): 115%
BMX (Homo sapiens, UniProt P51813): 82.2%
Aurora kinase C (AURKC, Homo sapiens, UniProt Q9UQB9): 55.8%

Set 4 — read-out: cell-free assay; method: competition with immobilised ligand; concentration: 1 µM; measurement: remaining binding
Compound: COc1ccc2c(O[C@@H]3C[C@H]4C(=O)N[C@]5(C(=O)O)CC5/C=C\CCCCC[C@H](NC(=O)OC5CCCC5)C(=O)N4C3)cc(-c3csc(NC(=O)C(C)C)n3)nc2c1C (stereo partly shown)
BRSK2 (Homo sapiens, UniProt Q8IWQ3): 100%
NTRK3 (Homo sapiens, UniProt Q16288): 97%
KIT (Homo sapiens, UniProt P10721, V559D): 91%
FLT3 (Homo sapiens, UniProt P36888, F691L/ITD): 80%
GRK1 (Homo sapiens, UniProt Q15835): 100%
ALK (Homo sapiens, UniProt Q9UM73, L1196M): 97%
CAMK1G (Homo sapiens, UniProt Q96NX5): 98%
MAPK8 (Homo sapiens, UniProt P45983): 81%
COQ8A (Homo sapiens, UniProt Q8NI60): 100%
CAMK1D (Homo sapiens, UniProt Q8IU85): 100%
TRPM6 (Homo sapiens, UniProt Q9BX84): 100%
LRRK2 (Homo sapiens, UniProt Q5S007): 92%
DCLK1 (Homo sapiens, UniProt O15075): 76%
MAK (Homo sapiens, UniProt P20794): 100%
NUAK1 (Homo sapiens, UniProt O60285): 92%

Excerpt of the above (set 3):
FLT3 (Homo sapiens, UniProt P36888): 47.8%
NUAK1 (Homo sapiens, UniProt O60285): 25%
GSK3A (Homo sapiens, UniProt P49840): 55.8%
SGK1 (Homo sapiens, UniProt O00141): 88.4%
RPS6KB1 (Homo sapiens, UniProt P23443): 108%
CSF1R (Homo sapiens, UniProt P07333): 37.7%
GRK6 (Homo sapiens, UniProt P43250): 88.3%
RPS6KA1 (Homo sapiens, UniProt Q15418): 89.8%
SRPK3 (Homo sapiens, UniProt Q9UPE1): 97.9%
PAK2 (Homo sapiens, UniProt Q13177): 97.5%
